Experimental data gathered from unrelated publications.
Each numbered part is a random draw from the data of one study; scales do not carry over between parts. Substitutions count along the parent as printed.

Sample 1
Target: CCNA2, cyclin fold, Cln2 fusion (human)
Method: yeast growth competition, sequencing
Medium: yeast
Notes: strong parent motif
Reference: not given
Reading: higher = stronger binding
Quantity: normalised enrichment score
Starting sequence: viral docking peptide; TSVRRALFTGGSD; partner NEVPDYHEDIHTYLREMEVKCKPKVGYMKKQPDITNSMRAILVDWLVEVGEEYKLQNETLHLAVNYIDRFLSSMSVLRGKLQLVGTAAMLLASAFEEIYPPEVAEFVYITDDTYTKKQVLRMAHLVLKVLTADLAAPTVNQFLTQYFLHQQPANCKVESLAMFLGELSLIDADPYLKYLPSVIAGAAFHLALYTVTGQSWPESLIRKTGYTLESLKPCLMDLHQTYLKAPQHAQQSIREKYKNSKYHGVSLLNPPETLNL
TDVRRALFTGGSD [S2D]: 4.9
TSVRRALQTGGSD [F8Q]: 0.59
TSVRRALPTGGSD [F8P]: 0.111
TSVNRALFTGGSD [R4N]: 3.15
TSVRRRLFTGGSD [A6R]: 6.77
TSVRRALFTLGSD [G10L]: 6.08
TQVRRALFTGGSD [S2Q]: 5.89
TWVRRALFTGGSD [S2W]: 4.3
TSVRRALFDGGSD [T9D]: 5.78
TFVRRALFTGGSD [S2F]: 4.96
TSVRRALFVGGSD [T9V]: 6.52
TSVRRALFTPGSD [G10P]: 5.95
TSVRRALFRGGSD [T9R]: 6.18
TSVRRALFCGGSD [T9C]: 5.9
TSVRRALFTGTSD [G11T]: 6.57

Sample 2
Target: RNA binding protein fox-1 homolog 2, RRM domain, GST-SBP tag (RBFOX2, Homo sapiens, UniProt O43251-10, residues 100-194)
Method: RNA Bind-n-Seq
Molecule type: RNA
Medium: in vitro
Concentration: 365 nM
Notes: natural RNA segment, single round, ends assumed
Reference: no-protein control
Reading: higher = stronger binding
Quantity: RBNS enrichment (R)
Shared flanks, not repeated: GGGAGUUCUACAGUCCGACGAUC … UGGAAUUCUCGGGUGCCAA
Target sequence (chain): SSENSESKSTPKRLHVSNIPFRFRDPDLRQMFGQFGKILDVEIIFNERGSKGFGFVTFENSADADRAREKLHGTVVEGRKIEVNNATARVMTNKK
GGGGAUAUAUUCACUACUUUGGGAUACCCCCAAACCUGUUCUGACGUCGUGAGUGUCAAAUGUGUCCCACUCCUCCCUAGAAGUUAUGAACACUACACACAGUCAAUAAA: 0.389
CUGUUGGGAUCAUUUGUGAAUACAUUCUUUGCUCCUCUUAAGUGCUUGUUUCCUAACCGUGCAGUGGUAGGUAUUAGUACACUGGGCACUUCCCCAGGGAUCUGGGGAAG: 0.315
UCAGCCUCUGGGAAACCACAGCAGUGAUGCCAGCUGGGCACGUCAGGACCUCCCCACACACCCACACGAUGCCACAGGUCAGGGGGCUGUGCCUGACUAGGGAGCCCUCC: 0.246
UGAAAACAACUAAUUUAAAUUUGCUUUGUUUUCUUUUUUAAGUUGAAUUGACGUUAAUGUGUUUUCACUGGAUUUUAUCUCUCUCAACUUCCUGCACUUAAAAUUUGAAA: 0.9
AAACCAACACAAGUCCCUGGGGCGGGUGGAGAAGAUGGUGGAGCCCCGUGAGACGGGGCUUCUGUGUGACCCUUACUUCCUCUGCACACUGGGACCCUUGAGCCAAGGGC: 0.631
UAGGAUUCUAUUACAUAUGCAAUUUGAGGUCUAACUUGUCCCUUUCCCUGCCAGCCAACCCCCACCACUCUAAGAGAAAUUUUAGCUUAUAUAUGACGGUAUAUUUGCAA: 0.197
CACUGGCCUGCUCCUACAGAAGGAAGCAAUCAUAGCUUCUAUUGUUUUAAACAAAACAACAGGAAGAACAGGACCAGGACUCUCCUAUACACAGUGUGUAGGAACAGCUG: 0.266
CCUCCCCCGCCCUCGCCCAUCCCAGGUGUGUGCCACACCCAGUAUUUCUUUCAGGUCUCAACUGUGGUGUUUUAAGUGCAGGGAAAAGGAACAAUCACAGCUAUGUGUGA: 0.411

Sample 3
Target: PABPC1L2, full length, GST fusion (mouse, UniProt A0ABA7IW68)
Method: RNAcompete
Molecule type: RNA
Medium: in vitro
Concentration: 20 nM
Notes: 7-mer, probes averaged, single round
Reference: mean of 7-mers
Reading: higher = stronger binding
Quantity: 7-mer Z-score
Construct (chain): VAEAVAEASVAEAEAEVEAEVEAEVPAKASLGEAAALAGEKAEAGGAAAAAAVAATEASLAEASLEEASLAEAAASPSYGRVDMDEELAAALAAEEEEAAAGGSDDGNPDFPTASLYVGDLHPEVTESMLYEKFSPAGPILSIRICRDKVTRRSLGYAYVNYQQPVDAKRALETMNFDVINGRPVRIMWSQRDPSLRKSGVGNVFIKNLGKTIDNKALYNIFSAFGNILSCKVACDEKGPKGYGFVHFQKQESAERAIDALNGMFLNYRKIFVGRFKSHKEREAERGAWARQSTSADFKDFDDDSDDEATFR
GCGAUAC: 0.0406
AAAUUAG: 2.09
ACGAGGC: 0.0696
ACCCCCA: -0.371
UACGGGC: 0.347
CGCUUAG: -0.315
UGAAGGG: 0.153
AAAUAGA: 3.06

Mixed results
Starting sequence: PafA, mature enzyme, eGFP fusion (Elizabethkingia meningoseptica, UniProt Q9KJX5); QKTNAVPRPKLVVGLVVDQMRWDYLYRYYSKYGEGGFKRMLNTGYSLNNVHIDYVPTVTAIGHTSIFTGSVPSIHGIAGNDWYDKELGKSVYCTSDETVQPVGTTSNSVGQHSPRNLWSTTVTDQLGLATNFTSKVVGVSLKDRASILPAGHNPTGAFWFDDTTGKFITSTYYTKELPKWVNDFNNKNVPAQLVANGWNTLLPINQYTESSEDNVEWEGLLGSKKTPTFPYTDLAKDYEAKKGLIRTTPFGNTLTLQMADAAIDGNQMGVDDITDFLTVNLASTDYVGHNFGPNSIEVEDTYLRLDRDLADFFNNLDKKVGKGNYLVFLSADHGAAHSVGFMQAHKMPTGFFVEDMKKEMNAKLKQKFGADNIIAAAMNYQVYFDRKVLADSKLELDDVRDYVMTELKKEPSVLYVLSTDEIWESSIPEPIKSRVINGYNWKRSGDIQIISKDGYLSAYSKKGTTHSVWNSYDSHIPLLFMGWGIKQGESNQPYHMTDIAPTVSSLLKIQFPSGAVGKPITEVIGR
T464V — oxyanion analog dissociation constant (tungstate, free oxyanion; microfluidic competitive inhibition; in vitro, cell-free expressed; not given, derived from inhibition constants, unchanged parent 2230 nM; lower = stronger binding): 3.42 µM

Some of these lines once more (sample 1):
TSVRRALFDGGSD [T9D]: 5.78
TFVRRALFTGGSD [S2F]: 4.96
TSVRRALFVGGSD [T9V]: 6.52
TSVRRALFTPGSD [G10P]: 5.95
TSVRRALFRGGSD [T9R]: 6.18
